Assay results from different studies.
Parts stem from different laboratories: compare values within a part only. Changes are numbered by the printed parent chain.

Set 1 — technique: protein binding microarray; form: double-stranded DNA, one strand shown; medium: in vitro; concentration: not given; reference: not given; reading: higher = stronger binding
Target: Histone acetyltransferase KAT6A, winged helix 2, GST fusion (KAT6A, Homo sapiens, UniProt Q92794, residues 85-181)
Setting: 8-mer, flanks averaged, mean of 2 arrays, mostly near background
Target sequence (chain): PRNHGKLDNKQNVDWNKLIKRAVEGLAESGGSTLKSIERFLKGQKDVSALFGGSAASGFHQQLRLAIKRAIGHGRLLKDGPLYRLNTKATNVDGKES
Strand	E-score
CTGGGAGC	0.0227
ACCGACAC	-0.00784
CGATCTGA	0.0534
AAGCACAA	0.131
AATGATCG	-0.16
ACGTTCGG	-0.275
TGAACAAA	-0.00212
AACCGAGC	0.147
GGTGATGA	-0.124
ACCTCGCG	0.00527
CGCGATCC	0.0894
TCTGGGCA	0.117
ATCTCCTG	0.0725
AACTTGTA	-0.163
CCATATAC	-0.073
AGCAACAT	0.0652
CTCTCGCA	-0.0931

Set 2 — technique: protein-binding microarray; form: double-stranded DNA, one strand shown; medium: in vitro; concentration: 250 nM; setting: 60-bp whole probe; added: salmon DNA 0.4 mg/ml; reference: random background probes; reading: higher = stronger binding; all sequences stand within: GCCTAGCAC … GTCTTGATTCGCTTGACGCTGCTG
Target: Interferon regulatory factor 5, full length, phosphomimetic (IRF5, Homo sapiens, UniProt Q13568-2, residues 1-514, K96S/S451D/S453D/S456D/S462D)
Strand	log fluorescence
GACGACCTGAGACTGGAGACGTGCTAG	-0.396 z-score
GACGGTTTCGGCTTTCGGGACGTGCTA	7.64 z-score
TTAGGTTTCGGCTTCGGTTAGTGCTAG	7.87 z-score
GTAGGACTGGGTCTCGGTTAGTGCTAG	-0.54 z-score
TTCGAACTGAGTATCGATTAGTGCTAG	7.05 z-score
GACGGACTGCTTTTCCTGGCGTGCTAG	-0.292 z-score
AAGAGTTTCCCTCCCTGAGTGTGCTAG	0.658 z-score
GACGGAATGGACACTGGGGACGTGCTA	-0.347 z-score
GACGATCTAAGTATCGAGACGTGCTAG	1.8 z-score
TTATAACTGGGGTATCGATTAGTGCTA	2.76 z-score
GATGATCTCAGACTGGAGACGTGCTAG	-0.29 z-score
TTAGGTCTCCTACTGCTATAGTGCTAG	-0.175 z-score
GTAGATTTCAGTATCGATTAGTGCTAG	8.04 z-score
TCCATGACCTACCCTGCGTTGTGCTAG	-0.401 z-score
TTAGATATCAGTTCCGATTAGTGCTAG	2.19 z-score
GACGGGATCGGGTTTCGGGACGTGCTA	1.82 z-score
TCAAAATTAGTGTTTGCCACTGTGCTA	0.216 z-score
TCAGTAATCGAAATCTTACTGTGCTAG	1.24 z-score
TTAGGAATCCTACTGCTTTAGTGCTAG	-0.0218 z-score
GACGAACTAAGTTTCGAGACGTGCTAG	4.54 z-score
GACGGTTTCGATTTTCGGGACGTGCTA	8.55 z-score
CCCACCTCTCACGGGCTTGTGTGCTAG	-0.457 z-score
TGGTATTTTTTTGTAATCGAGTGCTAG	0.735 z-score
TTCGGTTTCGACACTGGGTTAGTGCTA	7.37 z-score
TATATTCTATTCCTTTAACAGTGCTAG	1.27 z-score

Set 3 — technique: universal PBM; form: double-stranded DNA, one strand shown; medium: in vitro; concentration: not given; reading: higher = stronger binding
Target: Sal-like protein 4, full length isoform B (SALL4, Homo sapiens, UniProt Q9UJQ4-2, residues 1-616)
Setting: 8-mer, flanks averaged, mean of replicates
Residues (chain): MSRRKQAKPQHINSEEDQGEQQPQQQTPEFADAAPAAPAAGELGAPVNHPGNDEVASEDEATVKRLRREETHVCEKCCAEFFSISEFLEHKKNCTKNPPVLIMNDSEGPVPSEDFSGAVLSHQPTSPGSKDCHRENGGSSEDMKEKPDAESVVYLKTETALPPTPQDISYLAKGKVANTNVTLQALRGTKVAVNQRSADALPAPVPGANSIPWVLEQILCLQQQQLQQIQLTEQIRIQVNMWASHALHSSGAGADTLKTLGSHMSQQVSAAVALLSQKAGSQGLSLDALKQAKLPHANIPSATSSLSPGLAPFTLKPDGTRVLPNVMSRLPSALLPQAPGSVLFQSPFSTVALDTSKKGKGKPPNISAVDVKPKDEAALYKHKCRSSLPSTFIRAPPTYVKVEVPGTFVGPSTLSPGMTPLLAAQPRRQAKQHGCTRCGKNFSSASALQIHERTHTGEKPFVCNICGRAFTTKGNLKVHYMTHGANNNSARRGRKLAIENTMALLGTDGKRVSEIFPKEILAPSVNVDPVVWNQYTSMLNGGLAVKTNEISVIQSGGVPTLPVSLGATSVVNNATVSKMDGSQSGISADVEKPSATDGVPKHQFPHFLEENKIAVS
Strand	E-score
ACTAACGC	-0.0189
GCTGAAGC	-0.118
GTAGCTTA	0.143
CCCGAGTA	-0.0177
ATTAGGCG	-0.0101
CACCGACA	-0.222
GAGATGCC	-0.168
GAAAACAC	-0.0606
ACTGCCCT	-0.159
CGCGGATA	-0.00533
AGCACGCA	-0.132
AAAATAAC	0.296
ATCGCGCC	-0.15
ACGAACTG	-0.163
GTTATAAC	0.234
TACCACGA	0.0664
CGGCCACC	-0.274
GACCAAGA	-0.186
CGAACCGA	-0.112
AAACTGTA	0.28
CGAGTTTA	-0.0655
CGGCCAGC	-0.219
GGCGTCCA	-0.158
AATCGCGA	0.0243
ATGAGTCA	0.154

Set 4 — target: CCND2, cyclin fold, Cln2 fusion (human); technique: yeast growth competition, sequencing; medium: yeast; setting: weak parent motif; reference: not given; reading: higher = stronger binding
Parent: GMNC docking peptide (human); KNAKRNLSSEFAN
Variant	normalised enrichment score
S9C	0.32
S8E	-0.165
N2G	0.417
L7V	-0.00777
S9V	0.252
L7T	0.132
N2A	0.187
L7A	0.336
S9T	0.855
K4R	0.439
L7I	0.252
A12N	0.319
K4Q	0.493
F11R	-0.0592
E10K	-0.41
A3R	0.158

Set 5 — technique: RNA Bind-n-Seq; form: RNA; medium: in vitro; concentration: 200 nM; setting: whole 134-nt RNA, ends assumed; added: 150 mM KCl; reference: input library; reading: higher = stronger binding
Target: Fragile X messenger ribonucleoprotein 1, C-terminal low-complexity region (Fmr1, Mus musculus, UniProt P35922)
All sequences stand within: GGGAGUUCUACAGUCCGACGAUC … UGGAAUUCUCGGGUGUCAAGG
Strand	log2 enrichment
ACCAUGCAGGUGGGCAAAAUUGGGAAGUGGGGCAAGGGGGGGAUAGGGAGGGGGGUAACACUUUGGGAACAGGUGGUCCCAGGUCGUUUC	0.543
UGGGCAUUUUGGUGGAGACGAUGAGCACCAACGACACGAUCGUCAGUGGCACGCUGCCCCAGCGCAUGGCGUCCUGCCUGGAGGUGCUGG	-1.2
CUCAAGUCCUGUGCUACACAUCGUAUGUACCGAAUCGGGGCCGGGCCGGGCCGGAAAGUAUUAUGUUACGCCGUUCGGAUCUGCACUUCC	-0.0188
CCUGUGCUACACAUCGUAUGUACCGAAUCGGCCCCCCCGGCCCCCCCGGGGCCCCCCCGGAAAGUAUUAUGUUACGCCGUUCGGAUCUGC	-0.102
UGUGCUACACAUCGUAUGUACCGAAUCGGGGCCCCCCCGGGGCCCCCCCGGGGCCCCCCCGGAAAGUAUUAUGUUACGCCGUUCGGAUCU	-0.762
CCUGUGCUACACAUCGUAUGUACCGAAUCGGGCCCCCCCGGGCCCCCCCGGCCCCCCCGGAAAGUAUUAUGUUACGCCGUUCGGAUCUGC	-0.0418
UUCAACAACUAGUACUGCUUCAAAUUAUCCAGAUGUGUUAACAAGGCCUUCUCUUCAUCGGAGCCAUCUGAAUUUUUCCAUGUUGGAAUC	0.267
CUGUGCUACACAUCGUAUGUACCGAAUCGGGGUUUUUUUGGGUUUUUUUGGUUUUUUUGGGAAAGUAUUAUGUUACGCCGUUCGGAUCUG	-0.796
UCCUGUGCUACACAUCGUAUGUACCGAAUCGGGGAAAGGGGAAAAAAAGGGGAAAGGGGAAAGUAUUAUGUUACGCCGUUCGGAUCUGCA	0.522
UCCUGUGCUACACAUCGUAUGUACCGAAUCAAACCCCCAAACCCCCAAACCCCCCCAAAAAAGUAUUAUGUUACGCCGUUCGGAUCUGCA	-0.000588
